Experimental data collected from several papers.
Each numbered part is a random draw from the data of one study; scales do not carry over between parts. “And” joins repeats or separate records; there may be more than shown.
UniProt Q12866, sequence (whole entry, looked up): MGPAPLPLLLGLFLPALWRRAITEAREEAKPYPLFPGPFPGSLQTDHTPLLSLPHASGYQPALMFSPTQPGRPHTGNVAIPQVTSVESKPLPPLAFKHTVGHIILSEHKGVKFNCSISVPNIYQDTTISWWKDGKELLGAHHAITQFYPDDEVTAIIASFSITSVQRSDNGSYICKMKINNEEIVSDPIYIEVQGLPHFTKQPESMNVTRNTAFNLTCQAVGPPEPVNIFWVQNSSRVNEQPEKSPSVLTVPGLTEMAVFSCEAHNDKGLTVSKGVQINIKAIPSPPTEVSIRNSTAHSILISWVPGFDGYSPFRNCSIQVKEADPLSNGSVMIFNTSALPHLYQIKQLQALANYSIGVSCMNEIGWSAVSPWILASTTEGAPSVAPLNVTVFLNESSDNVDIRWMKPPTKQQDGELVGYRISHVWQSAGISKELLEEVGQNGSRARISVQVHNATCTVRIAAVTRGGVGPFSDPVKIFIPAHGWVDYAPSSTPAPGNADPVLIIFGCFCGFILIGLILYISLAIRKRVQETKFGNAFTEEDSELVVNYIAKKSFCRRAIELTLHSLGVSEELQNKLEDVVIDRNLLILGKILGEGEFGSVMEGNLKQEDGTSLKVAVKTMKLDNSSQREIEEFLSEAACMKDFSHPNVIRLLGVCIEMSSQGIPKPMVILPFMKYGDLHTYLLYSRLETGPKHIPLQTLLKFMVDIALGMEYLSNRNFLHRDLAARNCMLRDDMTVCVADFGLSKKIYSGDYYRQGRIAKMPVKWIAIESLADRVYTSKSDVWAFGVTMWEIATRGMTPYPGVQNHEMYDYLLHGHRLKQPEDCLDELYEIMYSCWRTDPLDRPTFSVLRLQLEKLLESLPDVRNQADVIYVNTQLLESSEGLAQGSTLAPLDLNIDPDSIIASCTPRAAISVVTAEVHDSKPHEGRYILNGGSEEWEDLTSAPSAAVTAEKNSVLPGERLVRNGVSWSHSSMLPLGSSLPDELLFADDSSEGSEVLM
UniProt P30291, sequence (whole entry, looked up): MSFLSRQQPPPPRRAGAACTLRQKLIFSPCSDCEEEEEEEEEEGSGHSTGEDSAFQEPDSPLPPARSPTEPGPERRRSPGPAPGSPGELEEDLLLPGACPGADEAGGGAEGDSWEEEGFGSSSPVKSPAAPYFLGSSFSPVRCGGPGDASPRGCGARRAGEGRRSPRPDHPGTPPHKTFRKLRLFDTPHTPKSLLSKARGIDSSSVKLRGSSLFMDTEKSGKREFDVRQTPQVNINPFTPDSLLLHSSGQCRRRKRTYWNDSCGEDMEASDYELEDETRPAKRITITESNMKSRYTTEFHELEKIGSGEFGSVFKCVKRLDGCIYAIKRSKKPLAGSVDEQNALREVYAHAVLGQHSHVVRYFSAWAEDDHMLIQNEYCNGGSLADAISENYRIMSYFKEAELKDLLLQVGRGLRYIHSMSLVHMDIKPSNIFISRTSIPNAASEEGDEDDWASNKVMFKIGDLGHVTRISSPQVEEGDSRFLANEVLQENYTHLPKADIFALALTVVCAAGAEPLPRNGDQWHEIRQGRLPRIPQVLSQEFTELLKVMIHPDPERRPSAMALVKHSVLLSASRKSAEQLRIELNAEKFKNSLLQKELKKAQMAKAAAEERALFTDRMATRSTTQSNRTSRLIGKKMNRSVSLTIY
UniProt P27361, sequence (whole entry, looked up): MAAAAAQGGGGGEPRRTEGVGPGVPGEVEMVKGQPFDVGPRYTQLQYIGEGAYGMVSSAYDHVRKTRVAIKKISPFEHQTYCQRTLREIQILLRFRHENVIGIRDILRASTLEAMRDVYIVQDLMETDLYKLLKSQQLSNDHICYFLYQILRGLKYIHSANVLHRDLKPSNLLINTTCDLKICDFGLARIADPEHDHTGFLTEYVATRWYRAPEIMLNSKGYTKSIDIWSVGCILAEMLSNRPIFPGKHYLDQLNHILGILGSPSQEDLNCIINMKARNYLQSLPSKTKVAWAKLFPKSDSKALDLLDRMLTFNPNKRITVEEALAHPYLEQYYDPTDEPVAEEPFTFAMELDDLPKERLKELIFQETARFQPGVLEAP
UniProt Q6PHR2, sequence (whole entry, looked up): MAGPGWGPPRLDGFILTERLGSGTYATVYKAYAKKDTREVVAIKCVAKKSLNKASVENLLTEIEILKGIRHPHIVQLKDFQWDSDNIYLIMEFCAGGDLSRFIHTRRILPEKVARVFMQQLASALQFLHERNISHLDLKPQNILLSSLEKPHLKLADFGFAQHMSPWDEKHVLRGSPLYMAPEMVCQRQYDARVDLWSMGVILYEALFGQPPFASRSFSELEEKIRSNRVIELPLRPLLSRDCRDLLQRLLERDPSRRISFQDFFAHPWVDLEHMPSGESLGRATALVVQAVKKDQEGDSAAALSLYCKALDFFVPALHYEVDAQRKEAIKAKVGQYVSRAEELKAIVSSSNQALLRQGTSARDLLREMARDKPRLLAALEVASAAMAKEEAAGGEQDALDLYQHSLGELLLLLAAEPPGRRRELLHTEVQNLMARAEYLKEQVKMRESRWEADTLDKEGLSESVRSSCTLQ
UniProt Q02763, sequence (whole entry, looked up): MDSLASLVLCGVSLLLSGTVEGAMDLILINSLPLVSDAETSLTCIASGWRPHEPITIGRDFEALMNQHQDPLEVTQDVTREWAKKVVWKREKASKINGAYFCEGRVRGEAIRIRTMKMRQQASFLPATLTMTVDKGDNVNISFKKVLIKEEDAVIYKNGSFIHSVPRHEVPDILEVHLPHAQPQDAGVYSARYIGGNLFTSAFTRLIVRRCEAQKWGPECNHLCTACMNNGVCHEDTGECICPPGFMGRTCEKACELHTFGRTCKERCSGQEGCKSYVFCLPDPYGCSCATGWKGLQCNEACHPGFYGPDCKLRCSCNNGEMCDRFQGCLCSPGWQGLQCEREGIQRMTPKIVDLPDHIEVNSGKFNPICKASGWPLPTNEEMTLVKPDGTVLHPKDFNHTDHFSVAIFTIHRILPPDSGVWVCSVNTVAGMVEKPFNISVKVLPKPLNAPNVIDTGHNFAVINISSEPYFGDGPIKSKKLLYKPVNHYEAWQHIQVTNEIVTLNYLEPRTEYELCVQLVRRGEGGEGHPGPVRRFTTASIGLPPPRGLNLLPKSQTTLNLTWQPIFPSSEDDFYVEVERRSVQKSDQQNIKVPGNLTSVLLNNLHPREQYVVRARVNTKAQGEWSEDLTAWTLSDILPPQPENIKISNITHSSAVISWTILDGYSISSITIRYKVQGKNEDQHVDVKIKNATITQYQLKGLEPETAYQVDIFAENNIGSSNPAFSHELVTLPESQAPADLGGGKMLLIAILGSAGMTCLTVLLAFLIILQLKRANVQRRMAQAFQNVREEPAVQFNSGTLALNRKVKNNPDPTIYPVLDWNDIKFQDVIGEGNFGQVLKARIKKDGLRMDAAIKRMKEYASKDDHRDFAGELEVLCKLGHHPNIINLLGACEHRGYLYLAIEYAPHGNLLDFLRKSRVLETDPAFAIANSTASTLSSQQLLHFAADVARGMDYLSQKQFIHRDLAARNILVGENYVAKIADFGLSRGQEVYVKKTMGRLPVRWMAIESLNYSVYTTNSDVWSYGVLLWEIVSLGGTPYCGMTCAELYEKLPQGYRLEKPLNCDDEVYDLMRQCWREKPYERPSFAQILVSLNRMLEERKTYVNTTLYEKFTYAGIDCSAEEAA
UniProt Q15349, sequence (whole entry, looked up): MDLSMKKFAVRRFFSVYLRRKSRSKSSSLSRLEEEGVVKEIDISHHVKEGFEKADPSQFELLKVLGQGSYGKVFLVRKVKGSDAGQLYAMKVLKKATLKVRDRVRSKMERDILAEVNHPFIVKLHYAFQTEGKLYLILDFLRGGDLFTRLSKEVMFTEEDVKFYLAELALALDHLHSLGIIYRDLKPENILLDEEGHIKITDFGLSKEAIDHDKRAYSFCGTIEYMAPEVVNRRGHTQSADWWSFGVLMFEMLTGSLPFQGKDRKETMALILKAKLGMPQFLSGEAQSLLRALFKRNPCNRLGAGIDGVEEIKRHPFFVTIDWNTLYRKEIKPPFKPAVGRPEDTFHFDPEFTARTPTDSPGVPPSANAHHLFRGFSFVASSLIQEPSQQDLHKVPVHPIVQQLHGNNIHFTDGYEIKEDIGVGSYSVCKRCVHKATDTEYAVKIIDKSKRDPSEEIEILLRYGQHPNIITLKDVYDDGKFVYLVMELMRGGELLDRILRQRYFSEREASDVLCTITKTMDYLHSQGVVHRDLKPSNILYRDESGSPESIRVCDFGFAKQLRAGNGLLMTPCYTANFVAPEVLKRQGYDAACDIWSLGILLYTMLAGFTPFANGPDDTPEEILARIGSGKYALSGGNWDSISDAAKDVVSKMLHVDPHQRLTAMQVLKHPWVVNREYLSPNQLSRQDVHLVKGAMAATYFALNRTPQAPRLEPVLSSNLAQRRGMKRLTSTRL
UniProt P06239, sequence (whole entry, looked up): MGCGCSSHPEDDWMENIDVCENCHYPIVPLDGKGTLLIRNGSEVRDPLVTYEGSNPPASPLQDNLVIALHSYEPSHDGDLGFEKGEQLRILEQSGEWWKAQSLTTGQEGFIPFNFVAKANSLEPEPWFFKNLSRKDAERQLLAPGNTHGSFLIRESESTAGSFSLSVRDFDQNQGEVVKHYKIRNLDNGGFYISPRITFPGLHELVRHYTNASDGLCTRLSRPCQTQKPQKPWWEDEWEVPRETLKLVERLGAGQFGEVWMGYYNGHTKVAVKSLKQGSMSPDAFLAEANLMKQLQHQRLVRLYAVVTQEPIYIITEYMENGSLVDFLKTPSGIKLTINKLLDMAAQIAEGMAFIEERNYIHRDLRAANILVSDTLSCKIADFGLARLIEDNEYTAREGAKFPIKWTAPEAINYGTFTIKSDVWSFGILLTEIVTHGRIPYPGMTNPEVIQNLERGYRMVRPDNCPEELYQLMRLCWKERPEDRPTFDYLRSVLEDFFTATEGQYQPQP

Sample 1 — cell line: mouse MPNST tumor cells; method: high-content nuclear imaging; refers to: cell number; concentration: 10 µM; time: 12 h; notes: mean of 2 replicates; baseline: plate mean; direction: higher = more cells
| Structure (SMILES) | nuclei count |
| --- | --- |
| CCCC1O[C@@H]2C[C@H]3[C@@H]4CCC5=CC(=O)C=C[C@]5(C)[C@H]4[C@@H](O)C[C@]3(C)[C@]2(C(=O)CO)O1 (stereo partly drawn) | 4.02 z-score and 0.163 z-score |
| CCC(=O)[C@@]1(C)[C@H](C)C[C@H]2[C@@H]3CCC4=CC(=O)C=C[C@]4(C)[C@H]3[C@@H](O)C[C@@]21C | 1.62 z-score |
| CC1Nc2ccc(Cl)cc2S(=O)(=O)N1 (stereo not drawn) | 0.706 z-score |
| O=c1onc2cnc3ccccc3n12 | 0.922 z-score |
| CC(C)[C@H](NS(=O)(=O)c1ccc(-c2ccc(Br)cc2)cc1)C(=O)O | 1.43 z-score |
| Cn1c(=O)c2c(ncn2C)n(C)c1=O | 0.826 z-score and 1.02 z-score |

Sample 2 — observed: radioligand binding; method: radioligand displacement; concentration: 10 µM
Target: Translocator protein (Tspo, Rattus norvegicus, UniProt P16257)
UniProt P16257, sequence (whole entry, looked up): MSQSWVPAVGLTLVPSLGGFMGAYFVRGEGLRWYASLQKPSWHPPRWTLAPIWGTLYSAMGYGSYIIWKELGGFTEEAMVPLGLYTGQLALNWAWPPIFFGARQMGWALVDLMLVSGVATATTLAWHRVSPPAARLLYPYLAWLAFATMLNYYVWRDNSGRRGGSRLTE
| SMILES | inhibition [%] |
| --- | --- |
| COc1ccc2c(c1)O[C@H](c1ccc(OC)c(OC)c1)C[C@@H]2NC(=O)C1(c2ccc3c(c2)OC(F)(F)O3)CC1 (single isomer, unassigned) | 66.6 |
| O=C(Nc1ccc(-n2nc(-c3cccnc3)cc2C(F)(F)F)cn1)c1ccc(-c2ccccc2)c(F)c1 | 15 |
| CCS(=O)(=O)c1cc2cc(C[C@@](O)(CC(C)(C)c3ccc(F)cc3C(N)=O)C(F)(F)F)[nH]c2cn1 | -25.6 |
| N#CN1CC[C@@H](C(=O)Nc2nc3c(s2)CN(C(=O)CN=[N+]=[N-])CC3)C1 | 5.64 |

Sample 3 — SMILES: Nc1ncnc2c1cnn2-c1ccccc1; observed: enzyme activity; mode: inhibitor; concentration: 0.5 µM; baseline: control
| target | remaining activity [%] |
| --- | --- |
| TEK (Homo sapiens, UniProt Q02763) | 92.2 |
| EPHA3 (Homo sapiens, UniProt P29320) | 95 |
| MAPKAPK2 (Homo sapiens, UniProt P49137) | 98.6 |
| GSK3B (Homo sapiens, UniProt P49841) | 91.6 |
| ARAF (Homo sapiens, UniProt P10398) | 99.3 |
| GRK7 (Homo sapiens, UniProt Q8WTQ7) | 100 |
| NEK6 (Homo sapiens, UniProt Q9HC98) | 114 |
| MAPK3 (Homo sapiens, UniProt P27361) | 90.1 |
| MST1R (Homo sapiens, UniProt Q04912) | 100 |
| RPS6KA2 (Homo sapiens, UniProt Q15349) | 92.5 |
| MERTK (Homo sapiens, UniProt Q12866) | 94.3 |
| LCK (Homo sapiens, UniProt P06239) | 95.5 |
| ULK3 (Homo sapiens, UniProt Q6PHR2) | 98.9 |
| WEE1 (Homo sapiens, UniProt P30291) | 90 |

Sample 4 — host: mouse; sample: microsomes or S9; concentration: 2 µM; time: 0.5 h
| Compound | remaining compound [%] |
| --- | --- |
| Cc1cc(Cl)cc2c(=O)[nH]c(-c3cc(Br)nn3-c3ncccc3Cl)nc12 | 36.4 |
| Cc1ccc(C(=O)c2[nH]c3ccccc3c2CC(=O)O)cc1 | 52.9 |
| COC(=O)C1(CCCN(C)CCc2ccc(OC)c(OC)c2)CCCc2c1ccc(OC)c2OC (stereo not drawn) | 12.7 |
| CC(Sc1nnnn1C(C)C)C(=O)C12CC3CC(CC(C3)C1)C2 (stereo not drawn) | > 99 |

Sample 5 — cell line: HaCaT; concentration: 100 µM; time: 18 h
| Compound | viability [%] |
| --- | --- |
| CCN(CC)CCCC(C)Nc1c2ccc(Cl)cc2nc2ccc(OC)cc12 (stereo not drawn) | 19.6 |
| O=S(=O)(O)Oc1ccc(C(c2ccc(OS(=O)(=O)O)cc2)c2ccccn2)cc1 | 117 |
| CC(NCCC(c1ccccc1)c1ccccc1)c1ccccc1 (stereo not drawn) | 14.9 |
| CCCC(C(=O)OCCN(CC)CC)(c1ccccc1)c1ccccc1 | 17.6 |
| COC(=O)N[C@H](C(=O)N1CCC[C@H]1c1nc(-c2ccc(-c3ccc(-c4c[nH]c([C@@H]5CCCN5C(=O)[C@@H](NC(=O)OC)C(C)C)n4)cc3)cc2)c[nH]1)C(C)C | 32.1 |
